Experimental data from different studies.
Parts stem from different laboratories: compare values within a part only. Several values in a cell are separate wells, animals, samples, runs or records.
Sequence of UniProt Q9NYY3 (whole entry, looked up): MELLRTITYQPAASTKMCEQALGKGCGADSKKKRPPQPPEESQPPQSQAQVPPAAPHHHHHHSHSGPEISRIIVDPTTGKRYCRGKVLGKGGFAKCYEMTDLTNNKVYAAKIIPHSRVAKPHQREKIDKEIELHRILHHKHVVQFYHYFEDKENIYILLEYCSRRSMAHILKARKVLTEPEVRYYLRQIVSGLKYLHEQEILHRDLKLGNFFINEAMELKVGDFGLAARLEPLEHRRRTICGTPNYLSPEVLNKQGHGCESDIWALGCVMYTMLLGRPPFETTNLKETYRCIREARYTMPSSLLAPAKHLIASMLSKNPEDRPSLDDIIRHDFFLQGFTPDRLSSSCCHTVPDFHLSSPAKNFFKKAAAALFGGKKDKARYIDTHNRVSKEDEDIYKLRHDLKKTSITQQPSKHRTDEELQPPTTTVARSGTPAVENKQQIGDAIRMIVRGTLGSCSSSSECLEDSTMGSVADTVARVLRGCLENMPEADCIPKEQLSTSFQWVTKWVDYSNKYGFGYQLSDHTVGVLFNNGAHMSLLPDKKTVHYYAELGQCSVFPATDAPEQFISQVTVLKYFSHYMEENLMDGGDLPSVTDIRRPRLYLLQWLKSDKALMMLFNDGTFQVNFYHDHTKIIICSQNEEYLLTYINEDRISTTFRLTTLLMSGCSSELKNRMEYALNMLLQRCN
Sequence of UniProt Q8NG66 (whole entry, looked up): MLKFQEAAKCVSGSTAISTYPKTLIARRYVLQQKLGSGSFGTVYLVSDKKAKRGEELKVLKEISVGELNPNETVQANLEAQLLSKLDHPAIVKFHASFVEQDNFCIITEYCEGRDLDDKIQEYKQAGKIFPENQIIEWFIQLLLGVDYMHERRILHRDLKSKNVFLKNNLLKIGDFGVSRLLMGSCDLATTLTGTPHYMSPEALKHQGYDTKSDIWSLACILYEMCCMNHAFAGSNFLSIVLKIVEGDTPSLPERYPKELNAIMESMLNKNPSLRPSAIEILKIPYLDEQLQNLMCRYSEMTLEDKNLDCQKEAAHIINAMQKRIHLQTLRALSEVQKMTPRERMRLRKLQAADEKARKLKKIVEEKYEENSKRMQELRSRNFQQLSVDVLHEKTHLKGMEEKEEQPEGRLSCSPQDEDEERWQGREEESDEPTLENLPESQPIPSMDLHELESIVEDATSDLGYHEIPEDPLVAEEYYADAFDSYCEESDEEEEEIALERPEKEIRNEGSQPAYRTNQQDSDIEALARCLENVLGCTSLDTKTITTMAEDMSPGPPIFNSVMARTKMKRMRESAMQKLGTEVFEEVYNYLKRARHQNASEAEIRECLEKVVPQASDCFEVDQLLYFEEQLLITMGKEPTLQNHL
Sequence of UniProt P54756 (whole entry, looked up): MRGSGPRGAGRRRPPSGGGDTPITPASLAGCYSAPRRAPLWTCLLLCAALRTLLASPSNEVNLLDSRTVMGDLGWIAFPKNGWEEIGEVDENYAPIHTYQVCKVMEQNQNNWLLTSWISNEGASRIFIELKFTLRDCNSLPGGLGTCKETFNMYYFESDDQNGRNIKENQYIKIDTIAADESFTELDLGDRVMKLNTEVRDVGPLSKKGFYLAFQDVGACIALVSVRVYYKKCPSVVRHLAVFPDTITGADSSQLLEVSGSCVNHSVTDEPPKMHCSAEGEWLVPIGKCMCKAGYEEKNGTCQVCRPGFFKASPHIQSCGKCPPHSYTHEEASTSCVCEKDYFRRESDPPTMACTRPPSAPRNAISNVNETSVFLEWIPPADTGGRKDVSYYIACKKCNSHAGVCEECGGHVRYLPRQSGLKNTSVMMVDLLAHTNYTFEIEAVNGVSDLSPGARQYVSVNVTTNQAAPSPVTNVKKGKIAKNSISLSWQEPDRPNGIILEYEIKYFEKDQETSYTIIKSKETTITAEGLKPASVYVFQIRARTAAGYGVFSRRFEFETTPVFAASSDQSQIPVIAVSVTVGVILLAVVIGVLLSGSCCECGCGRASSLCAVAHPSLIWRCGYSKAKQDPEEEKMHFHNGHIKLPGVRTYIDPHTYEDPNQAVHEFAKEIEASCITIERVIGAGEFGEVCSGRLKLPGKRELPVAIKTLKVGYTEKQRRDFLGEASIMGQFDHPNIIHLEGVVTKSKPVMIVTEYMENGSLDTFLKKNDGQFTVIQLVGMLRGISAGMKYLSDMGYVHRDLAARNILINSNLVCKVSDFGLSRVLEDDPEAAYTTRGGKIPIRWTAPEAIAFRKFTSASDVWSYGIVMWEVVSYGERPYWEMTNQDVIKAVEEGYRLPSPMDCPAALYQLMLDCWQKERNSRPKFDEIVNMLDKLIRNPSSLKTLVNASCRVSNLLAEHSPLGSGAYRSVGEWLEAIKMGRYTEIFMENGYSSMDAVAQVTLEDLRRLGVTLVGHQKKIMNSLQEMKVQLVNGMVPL
Sequence of UniProt P22455 (whole entry, looked up): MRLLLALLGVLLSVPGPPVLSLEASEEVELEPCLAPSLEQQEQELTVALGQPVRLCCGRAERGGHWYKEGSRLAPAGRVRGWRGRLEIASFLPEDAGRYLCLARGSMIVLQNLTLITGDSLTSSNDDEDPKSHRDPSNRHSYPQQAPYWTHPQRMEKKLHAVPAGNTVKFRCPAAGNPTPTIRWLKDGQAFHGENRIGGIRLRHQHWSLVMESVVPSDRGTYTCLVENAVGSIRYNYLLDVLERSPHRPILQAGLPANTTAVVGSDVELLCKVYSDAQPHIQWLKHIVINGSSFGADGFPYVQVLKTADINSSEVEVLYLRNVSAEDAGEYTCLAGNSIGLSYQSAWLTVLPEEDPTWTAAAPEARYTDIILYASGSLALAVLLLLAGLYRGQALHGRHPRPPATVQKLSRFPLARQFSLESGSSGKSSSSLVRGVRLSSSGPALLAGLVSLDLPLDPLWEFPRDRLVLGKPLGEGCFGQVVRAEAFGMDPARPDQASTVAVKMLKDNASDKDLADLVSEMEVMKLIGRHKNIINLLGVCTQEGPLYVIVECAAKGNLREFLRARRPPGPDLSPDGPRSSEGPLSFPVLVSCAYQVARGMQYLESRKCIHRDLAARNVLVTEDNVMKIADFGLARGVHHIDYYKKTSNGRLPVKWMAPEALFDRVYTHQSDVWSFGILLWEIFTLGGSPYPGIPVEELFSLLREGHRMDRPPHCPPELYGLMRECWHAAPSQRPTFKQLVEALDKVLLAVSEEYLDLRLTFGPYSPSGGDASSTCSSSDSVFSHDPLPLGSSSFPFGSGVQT
Sequence of UniProt P10721 (whole entry, unmodified, looked up): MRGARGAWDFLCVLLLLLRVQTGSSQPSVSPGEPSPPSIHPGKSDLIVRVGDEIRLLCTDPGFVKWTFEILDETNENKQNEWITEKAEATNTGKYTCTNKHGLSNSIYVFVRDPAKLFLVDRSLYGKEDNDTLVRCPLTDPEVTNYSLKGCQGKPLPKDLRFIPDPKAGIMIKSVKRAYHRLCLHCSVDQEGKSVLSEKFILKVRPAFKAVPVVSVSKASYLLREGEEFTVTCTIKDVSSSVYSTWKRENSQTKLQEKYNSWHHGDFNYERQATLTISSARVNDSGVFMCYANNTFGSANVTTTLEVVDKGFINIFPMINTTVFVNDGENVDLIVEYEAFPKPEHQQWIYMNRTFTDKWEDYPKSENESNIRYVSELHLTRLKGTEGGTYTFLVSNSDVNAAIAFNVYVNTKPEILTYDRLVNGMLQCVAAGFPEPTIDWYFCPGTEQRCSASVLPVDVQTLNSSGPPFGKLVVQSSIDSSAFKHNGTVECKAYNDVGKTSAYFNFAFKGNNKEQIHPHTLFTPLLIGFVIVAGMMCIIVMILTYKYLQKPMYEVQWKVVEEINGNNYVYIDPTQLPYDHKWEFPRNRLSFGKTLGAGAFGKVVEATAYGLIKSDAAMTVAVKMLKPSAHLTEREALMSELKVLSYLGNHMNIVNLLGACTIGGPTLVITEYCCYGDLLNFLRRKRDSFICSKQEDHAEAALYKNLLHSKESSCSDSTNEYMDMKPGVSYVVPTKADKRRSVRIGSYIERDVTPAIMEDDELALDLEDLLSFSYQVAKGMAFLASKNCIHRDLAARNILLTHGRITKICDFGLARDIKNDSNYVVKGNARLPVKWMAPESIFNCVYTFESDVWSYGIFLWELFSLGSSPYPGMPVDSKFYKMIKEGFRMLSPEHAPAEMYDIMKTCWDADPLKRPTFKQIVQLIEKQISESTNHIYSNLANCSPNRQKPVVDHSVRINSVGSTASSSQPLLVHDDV
Sequence of UniProt P31749 (whole entry, looked up): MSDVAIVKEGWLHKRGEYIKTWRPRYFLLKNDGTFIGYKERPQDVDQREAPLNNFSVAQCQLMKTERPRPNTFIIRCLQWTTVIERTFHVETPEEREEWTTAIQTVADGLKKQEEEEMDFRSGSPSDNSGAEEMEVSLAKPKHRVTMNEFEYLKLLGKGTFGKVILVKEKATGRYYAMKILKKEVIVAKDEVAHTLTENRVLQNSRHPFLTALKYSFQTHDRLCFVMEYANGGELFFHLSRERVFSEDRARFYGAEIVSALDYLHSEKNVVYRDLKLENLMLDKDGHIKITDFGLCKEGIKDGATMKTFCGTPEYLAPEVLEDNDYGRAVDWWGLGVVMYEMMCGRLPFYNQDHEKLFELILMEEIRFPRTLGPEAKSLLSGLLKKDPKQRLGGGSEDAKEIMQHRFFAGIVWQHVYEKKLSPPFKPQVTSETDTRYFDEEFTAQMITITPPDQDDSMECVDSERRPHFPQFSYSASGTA
Sequence of UniProt P36507 (whole entry, looked up): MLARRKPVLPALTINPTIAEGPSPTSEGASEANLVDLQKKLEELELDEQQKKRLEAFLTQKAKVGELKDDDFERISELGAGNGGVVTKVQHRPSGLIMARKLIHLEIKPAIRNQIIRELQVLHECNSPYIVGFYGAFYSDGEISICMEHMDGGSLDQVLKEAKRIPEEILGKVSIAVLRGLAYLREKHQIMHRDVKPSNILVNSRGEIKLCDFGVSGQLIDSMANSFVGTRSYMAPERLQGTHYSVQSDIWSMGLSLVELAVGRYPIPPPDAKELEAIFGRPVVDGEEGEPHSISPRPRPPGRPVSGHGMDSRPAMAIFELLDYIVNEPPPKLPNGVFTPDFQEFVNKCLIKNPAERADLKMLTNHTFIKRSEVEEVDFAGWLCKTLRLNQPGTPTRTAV

Study 1
SMILES: COc1ccc2cc(OCC3(C(=O)O)CN(C(=O)c4ccc(F)cc4)C3)ccc2c1
Method: competition with immobilised ligand
Concentration: 1 µM
For NEK11 (Homo sapiens, UniProt Q8NG66); cell-free assay: remaining binding read 93%.
Tyrosine-protein kinase ABL1, non-phosphorylated (ABL1, Homo sapiens, UniProt P00519); cell-free assay — remaining binding: 78%.
The remaining binding was 82% (MAP3K14 (Homo sapiens, UniProt Q99558); cell-free assay).
It gave 100% for remaining binding (KIT (Homo sapiens, UniProt P10721, D816V); cell-free assay).
For CILK1 (Homo sapiens, UniProt Q9UPZ9); binding: remaining binding read 78%.
It gave 84% for remaining binding (MYLK (Homo sapiens, UniProt Q15746); cell-free assay).
It gave 100% for remaining binding (FGFR4 (Homo sapiens, UniProt P22455); cell-free assay).
For EGFR (Homo sapiens, UniProt P00533, del752-759); cell-free assay: remaining binding read 100%.
For MAP2K2 (Homo sapiens, UniProt P36507); cell-free assay: remaining binding read 100%.
It gave 100% for remaining binding (NEK10 (Homo sapiens, UniProt Q6ZWH5); cell-free assay).
For AKT1 (Homo sapiens, UniProt P31749); cell-free assay: remaining binding read 100%.
PIK3CA (Homo sapiens, UniProt P42336, H1047Y); cell-free assay — remaining binding: 100%.
It gave 74% for remaining binding (Tyrosine-protein kinase ABL1, non-phosphorylated (ABL1, Homo sapiens, UniProt P00519, H396P); cell-free assay).
For PLK2 (Homo sapiens, UniProt Q9NYY3); cell-free assay: remaining binding read 100%.
The remaining binding was 78% (EPHA5 (Homo sapiens, UniProt P54756); cell-free assay).
The remaining binding was 83% (PAK2 (Homo sapiens, UniProt Q13177); cell-free assay).

Study 2
Cell line: A-375
Concentration: 100 µM
Time: 36 h
With Nc1nc2c(c(=O)[nH]1)N(C=O)C(CNc1ccc(C(=O)N[C@@H](CCC(=O)O)C(=O)O)cc1)CN2 (stereo partly shown) the viability was 104%.
The viability of NC[C@H](O)c1ccc(O)c(O)c1 is reported as 87% and 115%.
With O=C(c1ccc(F)c(F)c1Nc1ccc(I)cc1F)N1CC(O)([C@@H]2CCCCN2)C1 the viability was 0.743%.
With Nc1ccn([C@@H]2O[C@H](CO)[C@@H](O)[C@@H]2O)c(=O)n1 the viability was 28.7%.
Cn1cc[nH]c1=S gave a viability of 113%.
The viability of CCCCN1CCCC[C@H]1C(=O)Nc1c(C)cccc1C is reported as 81.8% and 89.6%.
For O=C(O)c1cccc(-c2noc(-c3ccccc3F)n2)c1, the viability was 80.1%.
The viability of COc1cc([C@@H]2c3cc4c(cc3[C@@H](O[C@@H]3O[C@@H]5CO[C@@H](c6cccs6)O[C@H]5[C@H](O)[C@H]3O)[C@H]3COC(=O)[C@H]23)OCO4)cc(OC)c1O is reported as 23.5%.

Study 3
Species: human
Medium: microsomes or S9
Concentration: 2 µM
Time: 0.5 h
CCOc1ccc(Nc2ncc(F)c(Nc3ccc(OCC)cc3)n2)cc1 has a remaining compound of 32.4%.
For CCOc1ccc(N2C(=O)c3c(C(=O)OC)ncn3CC2(C)C(=O)NC2CCCCCC2)cc1 (stereo not shown), the remaining compound was 40.8%.
CC(=O)N1CCC2(CC1)OC(=O)C(C)=C2C(=O)N1CCN(C)CC1 gave a remaining compound of 108%.
With c1ccc(Cn2ncc3c(-n4ccnc4)ncnc32)cc1 the remaining compound was greater than 100%.
With O=S(=O)(CCc1ccccc1)NCCc1csc2nc(-c3ccccc3F)nn12 the remaining compound was 2.69%.
Fc1ccc2nccc(Nc3ccccc3F)c2c1 gave a remaining compound of 90.5%.
The remaining compound of Nc1c(Br)cc(O)cc1Br is reported as 83.8%.
The remaining compound of CN1CCc2c(c3ccccc3n2-c2cncnc2)C1 is reported as 69.3%.

Mixed results
CCC[C@H]1NC(=O)CSC[C@@H](C(=O)OCC)N(C)C(=O)[C@H](CC(C)C)NC(=O)[C@H](C)N(C)C(=O)[C@@H](CC(C)C)NC(=O)[C@H](C)N(C)C(=O)[C@@H]2CCCN2C(=O)[C@@H](CC(C)C)NC(=O)CN(CCC)C1=O gave a logD of 1.22 (hydrocarbon/water).
CC(C)n1cnc(-c2ccc(F)cc2)c1-c1ncc(C(=O)Nc2ccc(N3CCN(C)CC3)cc2)[nH]1: “patients with electrocardiogram QT prolonged” 0% (human, idiopathic pulmonary fibrosis; 60 mg once daily, trial, treatment-emergent).

For quick reference, copied from above (mixed results):
CCC[C@H]1NC(=O)CSC[C@@H](C(=O)OCC)N(C)C(=O)[C@H](CC(C)C)NC(=O)[C@H](C)N(C)C(=O)[C@@H](CC(C)C)NC(=O)[C@H](C)N(C)C(=O)[C@@H]2CCCN2C(=O)[C@@H](CC(C)C)NC(=O)CN(CCC)C1=O gave a logD of 1.22 (hydrocarbon/water).
CC(C)n1cnc(-c2ccc(F)cc2)c1-c1ncc(C(=O)Nc2ccc(N3CCN(C)CC3)cc2)[nH]1: “patients with electrocardiogram QT prolonged” 0% (human, idiopathic pulmonary fibrosis; 60 mg once daily, trial, treatment-emergent).
